{"data": "Measured values of several laboratories", "note": "Numbered parts are unrelated; each lists some results of a single study.", "chain of UniProt P37023 (whole entry, looked up)": "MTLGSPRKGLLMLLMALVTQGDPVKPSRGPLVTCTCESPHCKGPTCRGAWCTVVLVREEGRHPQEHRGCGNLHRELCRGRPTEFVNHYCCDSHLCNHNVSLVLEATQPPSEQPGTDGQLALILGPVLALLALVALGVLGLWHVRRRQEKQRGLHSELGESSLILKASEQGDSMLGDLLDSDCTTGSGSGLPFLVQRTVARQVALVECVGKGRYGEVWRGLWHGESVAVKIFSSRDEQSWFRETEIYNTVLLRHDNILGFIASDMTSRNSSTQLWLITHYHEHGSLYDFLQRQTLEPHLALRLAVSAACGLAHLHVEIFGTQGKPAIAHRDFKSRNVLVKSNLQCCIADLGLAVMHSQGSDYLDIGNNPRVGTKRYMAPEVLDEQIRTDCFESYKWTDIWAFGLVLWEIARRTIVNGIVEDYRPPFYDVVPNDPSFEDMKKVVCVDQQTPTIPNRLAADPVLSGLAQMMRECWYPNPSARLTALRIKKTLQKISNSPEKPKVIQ", "chain of UniProt Q9P0L2 (whole entry, looked up)": "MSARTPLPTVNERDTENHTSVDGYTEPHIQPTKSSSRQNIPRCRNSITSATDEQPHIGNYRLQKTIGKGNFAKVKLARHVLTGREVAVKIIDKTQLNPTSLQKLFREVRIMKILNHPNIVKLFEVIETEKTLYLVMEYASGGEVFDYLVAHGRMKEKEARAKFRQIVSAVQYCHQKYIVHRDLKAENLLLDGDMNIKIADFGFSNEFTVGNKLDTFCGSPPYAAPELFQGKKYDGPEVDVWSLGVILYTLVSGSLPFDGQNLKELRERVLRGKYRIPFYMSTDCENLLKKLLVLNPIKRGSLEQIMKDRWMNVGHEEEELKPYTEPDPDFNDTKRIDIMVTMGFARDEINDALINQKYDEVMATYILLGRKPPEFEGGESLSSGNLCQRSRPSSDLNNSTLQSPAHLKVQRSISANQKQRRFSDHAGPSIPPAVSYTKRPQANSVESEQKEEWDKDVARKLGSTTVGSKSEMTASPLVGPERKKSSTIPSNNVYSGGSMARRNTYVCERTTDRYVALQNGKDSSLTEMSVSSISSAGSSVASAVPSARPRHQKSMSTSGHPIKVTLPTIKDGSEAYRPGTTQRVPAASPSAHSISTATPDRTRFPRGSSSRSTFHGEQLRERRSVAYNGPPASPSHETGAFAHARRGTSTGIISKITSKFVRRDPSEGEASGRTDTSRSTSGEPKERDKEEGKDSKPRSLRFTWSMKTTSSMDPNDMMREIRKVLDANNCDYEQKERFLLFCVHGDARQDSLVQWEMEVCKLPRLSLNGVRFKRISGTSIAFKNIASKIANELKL", "chain of UniProt O60674 (whole entry, looked up)": "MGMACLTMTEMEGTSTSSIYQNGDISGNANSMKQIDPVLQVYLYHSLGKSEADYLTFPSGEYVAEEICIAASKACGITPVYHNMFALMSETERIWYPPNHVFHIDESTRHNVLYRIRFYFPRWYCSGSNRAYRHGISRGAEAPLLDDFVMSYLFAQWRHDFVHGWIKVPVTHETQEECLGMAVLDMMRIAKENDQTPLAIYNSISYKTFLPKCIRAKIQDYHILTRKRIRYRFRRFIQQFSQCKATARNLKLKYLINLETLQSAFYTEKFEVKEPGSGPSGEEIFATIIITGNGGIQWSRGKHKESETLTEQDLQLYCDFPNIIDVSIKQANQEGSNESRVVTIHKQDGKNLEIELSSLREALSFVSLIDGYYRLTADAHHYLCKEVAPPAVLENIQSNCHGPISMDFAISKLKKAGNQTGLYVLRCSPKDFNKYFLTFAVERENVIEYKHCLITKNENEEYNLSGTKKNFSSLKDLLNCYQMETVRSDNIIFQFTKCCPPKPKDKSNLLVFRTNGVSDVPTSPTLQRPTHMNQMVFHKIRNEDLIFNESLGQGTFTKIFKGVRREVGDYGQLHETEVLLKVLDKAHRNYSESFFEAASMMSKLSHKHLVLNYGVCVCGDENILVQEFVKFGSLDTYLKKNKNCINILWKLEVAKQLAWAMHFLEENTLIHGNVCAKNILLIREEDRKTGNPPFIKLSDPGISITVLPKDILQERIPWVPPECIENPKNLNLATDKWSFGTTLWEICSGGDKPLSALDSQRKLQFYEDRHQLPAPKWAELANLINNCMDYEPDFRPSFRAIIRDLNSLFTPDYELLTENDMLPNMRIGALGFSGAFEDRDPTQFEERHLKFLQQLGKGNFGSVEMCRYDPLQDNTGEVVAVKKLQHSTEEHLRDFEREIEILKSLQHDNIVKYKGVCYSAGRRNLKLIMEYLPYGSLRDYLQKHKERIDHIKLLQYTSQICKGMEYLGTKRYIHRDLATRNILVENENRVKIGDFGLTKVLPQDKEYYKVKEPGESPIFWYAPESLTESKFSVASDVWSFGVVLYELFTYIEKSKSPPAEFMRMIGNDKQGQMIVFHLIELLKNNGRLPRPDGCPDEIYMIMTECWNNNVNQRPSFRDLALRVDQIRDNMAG", "chain of UniProt P07332 (whole entry, looked up)": "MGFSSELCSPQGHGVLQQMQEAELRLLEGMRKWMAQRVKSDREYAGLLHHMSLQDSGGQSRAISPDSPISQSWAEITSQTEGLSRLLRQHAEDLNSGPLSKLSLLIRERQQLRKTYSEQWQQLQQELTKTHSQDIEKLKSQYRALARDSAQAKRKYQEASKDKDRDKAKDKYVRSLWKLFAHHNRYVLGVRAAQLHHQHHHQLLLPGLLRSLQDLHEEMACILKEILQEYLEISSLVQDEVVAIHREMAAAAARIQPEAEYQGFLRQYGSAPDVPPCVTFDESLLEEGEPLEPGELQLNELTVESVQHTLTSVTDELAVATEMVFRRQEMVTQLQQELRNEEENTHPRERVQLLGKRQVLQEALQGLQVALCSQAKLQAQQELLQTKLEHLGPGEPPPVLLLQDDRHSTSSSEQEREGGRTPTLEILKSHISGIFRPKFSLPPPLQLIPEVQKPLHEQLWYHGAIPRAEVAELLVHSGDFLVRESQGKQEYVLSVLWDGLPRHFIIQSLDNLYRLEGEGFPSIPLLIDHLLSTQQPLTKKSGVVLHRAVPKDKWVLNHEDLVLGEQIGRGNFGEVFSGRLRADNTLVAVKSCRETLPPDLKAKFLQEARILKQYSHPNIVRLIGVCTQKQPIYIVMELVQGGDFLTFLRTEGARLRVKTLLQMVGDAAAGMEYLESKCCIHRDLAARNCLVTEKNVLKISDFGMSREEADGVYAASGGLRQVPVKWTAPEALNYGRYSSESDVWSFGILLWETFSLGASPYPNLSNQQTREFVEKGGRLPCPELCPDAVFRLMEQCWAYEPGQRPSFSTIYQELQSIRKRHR", "chain of UniProt Q9UBS0 (whole entry, looked up)": "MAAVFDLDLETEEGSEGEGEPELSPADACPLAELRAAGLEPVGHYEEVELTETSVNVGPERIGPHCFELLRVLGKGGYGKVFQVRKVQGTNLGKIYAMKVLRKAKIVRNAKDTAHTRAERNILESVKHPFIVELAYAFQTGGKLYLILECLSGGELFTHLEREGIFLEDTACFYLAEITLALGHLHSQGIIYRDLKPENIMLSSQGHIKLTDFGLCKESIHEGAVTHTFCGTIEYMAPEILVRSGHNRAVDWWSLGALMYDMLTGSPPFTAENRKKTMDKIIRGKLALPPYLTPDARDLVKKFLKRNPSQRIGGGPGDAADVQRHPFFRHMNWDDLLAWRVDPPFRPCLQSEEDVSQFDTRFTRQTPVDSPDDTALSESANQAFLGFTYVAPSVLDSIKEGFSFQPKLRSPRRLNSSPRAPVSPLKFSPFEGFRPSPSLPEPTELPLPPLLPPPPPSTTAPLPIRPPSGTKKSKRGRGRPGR", "chain of UniProt Q14680 (whole entry, looked up)": "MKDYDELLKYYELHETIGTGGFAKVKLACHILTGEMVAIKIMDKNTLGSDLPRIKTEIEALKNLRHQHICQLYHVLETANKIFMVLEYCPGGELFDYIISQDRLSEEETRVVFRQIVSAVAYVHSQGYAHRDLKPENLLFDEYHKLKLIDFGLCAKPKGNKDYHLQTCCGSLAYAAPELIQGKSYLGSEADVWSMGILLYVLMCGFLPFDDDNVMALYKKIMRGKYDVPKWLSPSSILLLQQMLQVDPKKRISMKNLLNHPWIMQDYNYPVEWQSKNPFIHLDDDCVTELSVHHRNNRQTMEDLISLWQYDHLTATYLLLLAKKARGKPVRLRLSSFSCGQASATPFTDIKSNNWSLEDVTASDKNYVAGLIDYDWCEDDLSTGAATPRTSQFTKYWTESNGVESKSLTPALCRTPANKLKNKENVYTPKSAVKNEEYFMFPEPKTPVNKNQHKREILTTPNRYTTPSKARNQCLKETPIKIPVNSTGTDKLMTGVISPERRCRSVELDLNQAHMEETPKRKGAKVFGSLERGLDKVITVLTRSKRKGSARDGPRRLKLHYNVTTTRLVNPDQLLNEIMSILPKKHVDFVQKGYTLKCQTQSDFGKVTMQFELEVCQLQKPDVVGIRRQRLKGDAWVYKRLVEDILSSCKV"}
{"data": "Study 1", "SMILES": "CCn1cnc2c(Nc3cccc(Cl)c3)nc(N[C@H]3CCCC[C@H]3N)nc21", "read-out": "enzyme activity", "mode": "inhibitor", "concentration": "0.5 µM", "baseline": "control"}
{"target": "Serine/threonine-protein kinase MARK1 (MARK1, Homo sapiens, UniProt Q9P0L2)", "remaining activity [%]": 93.1}
{"target": "Dual specificity tyrosine-phosphorylation-regulated kinase 1A (DYRK1A, Homo sapiens, UniProt Q13627)", "remaining activity [%]": 100}
{"target": "Maternal embryonic leucine zipper kinase (MELK, Homo sapiens, UniProt Q14680)", "remaining activity [%]": 77}
{"target": "Activin receptor type-1-like (ACVRL1, Homo sapiens, UniProt P37023)", "remaining activity [%]": 99.9}
{"target": "Tyrosine-protein kinase Fes/Fps (FES, Homo sapiens, UniProt P07332)", "remaining activity [%]": 83.5}
{"target": "Serine/threonine-protein kinase BRSK2 (BRSK2, Homo sapiens, UniProt Q8IWQ3)", "remaining activity [%]": 94}
{"target": "Ribosomal protein S6 kinase beta-2 (RPS6KB2, Homo sapiens, UniProt Q9UBS0)", "remaining activity [%]": 103}
{"target": "Tyrosine-protein kinase JAK2 (JAK2, Homo sapiens, UniProt O60674)", "remaining activity [%]": 104}
{"data": "Study 2", "cell line": "HEK-293T", "read-out": "pseudovirus infection", "method": "FDA-approved drug library counter-screen", "organism": "VSV pseudotyped with VSV-G", "concentration": "10 µM", "time": "16 h", "baseline": "vehicle-treated"}
{"Compound": "CC(C)(Sc1cc(C(C)(C)C)c(O)c(C(C)(C)C)c1)Sc1cc(C(C)(C)C)c(O)c(C(C)(C)C)c1", "GFP-positive cells [%]": 116}
{"Compound": "CO[C@@]1(NC(=O)Cc2cccs2)C(=O)N2C(C(=O)O)=C(COC(N)=O)CS[C@@H]21", "GFP-positive cells [%]": 136}
{"Compound": "N=C(N)c1ccc(OCCCCCOc2ccc(C(=N)N)cc2)cc1", "GFP-positive cells [%]": 83.6}
{"Compound": "O=C(O)CCCCCCCC(=O)O", "GFP-positive cells [%]": 80.9}
{"Compound": "CCC(=O)NCC[C@@H]1CCc2ccc3c(c21)CCO3", "GFP-positive cells [%]": 92.2}
{"Compound": "COc1cccc2c1C(=O)c1c(O)c3c(c(O)c1C2=O)C[C@@](O)(C(=O)CO)C[C@@H]3O[C@H]1C[C@H](N)[C@@H](O)[C@H](C)O1", "GFP-positive cells [%]": 130}
{"Compound": "CN(C)CC[C@@H](c1ccc(Cl)cc1)c1ccccn1", "GFP-positive cells [%]": 119}
{"data": "Further values, each from its own experiment", "CRK2": "Cyclin-dependent kinase 2 homolog (CRK2, Plasmodium falciparum, UniProt P61075)", "chain of UniProt P61075 (whole entry, looked up)": "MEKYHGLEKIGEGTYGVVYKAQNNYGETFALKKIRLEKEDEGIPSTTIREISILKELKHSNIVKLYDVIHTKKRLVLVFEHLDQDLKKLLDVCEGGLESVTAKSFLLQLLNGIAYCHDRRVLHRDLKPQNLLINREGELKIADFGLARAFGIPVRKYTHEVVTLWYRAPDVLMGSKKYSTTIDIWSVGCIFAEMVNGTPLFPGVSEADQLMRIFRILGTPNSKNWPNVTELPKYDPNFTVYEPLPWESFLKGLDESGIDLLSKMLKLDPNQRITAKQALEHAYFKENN"}
{"SMILES": "O=C(O)c1cc(-c2ccc(C3CCNCC3)cc2)c2ccc(-c3ccc(C(F)(F)F)cc3)cc2c1", "tested on": "Calcium-dependent protein kinase 1 (CDPK1, Plasmodium falciparum, UniProt P62344)", "assay": "cell-free assay, competition with immobilised ligand", "setting": "1 µM", "endpoint": "remaining binding", "result": "100%"}
{"SMILES": "Cc1nc(NCCc2c[nH]cn2)cc([C@H]2C[C@@H](O)C2)n1", "system": "human, microsomes or S9", "setting": "2 µM, 0.5 h", "endpoint": "remaining compound", "result": "> 99%"}
{"SMILES": "CN[C@@H]1C[C@H]2O[C@@](C)([C@@H]1OC)n1c3ccccc3c3c4c(c5c6ccccc6n2c5c31)C(=O)NC4", "tested on": "normal-adjacent organoid sample E", "assay": "CellTiter-Glo", "setting": "1 µM, replicate mean", "scale": "baseline: DMSO", "endpoint": "viability", "result": "1.1%"}
{"SMILES": "C=C[C@H]1C[N@+]2(Cc3cc(C(C)(C)C)c(OC)c(C(C)(C)C)c3)CC[C@H]1C[C@H]2[C@H](O)c1ccnc2ccccc12", "system": "human, microsomes or S9", "setting": "2 µM, 0.5 h", "endpoint": "remaining compound", "result": "13%"}
{"SMILES": "C[C@@H]1CN(c2cc(-c3n[nH]c4ccc(OC5(C)CC5)cc34)ncn2)C[C@H](C)O1", "tested on": "CRK2", "assay": "cell-free assay, competition with immobilised ligand", "setting": "0.1 µM", "endpoint": "remaining binding", "result": "80%"}
{"SMILES": "Cn1cc(Cl)c2c(Oc3c(F)cc(Nc4cc(Cl)nc(N)n4)cc3F)ccnc21", "tested on": "CRK2", "assay": "cell-free assay, competition with immobilised ligand", "setting": "0.1 µM", "endpoint": "remaining binding", "result": "68%"}
{"note": "Excerpt of the above (further values, each from its own experiment):"}
{"SMILES": "O=C(O)c1cc(-c2ccc(C3CCNCC3)cc2)c2ccc(-c3ccc(C(F)(F)F)cc3)cc2c1", "tested on": "Calcium-dependent protein kinase 1 (CDPK1, Plasmodium falciparum, UniProt P62344)", "assay": "cell-free assay, competition with immobilised ligand", "setting": "1 µM", "endpoint": "remaining binding", "result": "100%"}
{"SMILES": "Cc1nc(NCCc2c[nH]cn2)cc([C@H]2C[C@@H](O)C2)n1", "system": "human, microsomes or S9", "setting": "2 µM, 0.5 h", "endpoint": "remaining compound", "result": "> 99%"}
